Measurements gathered from unrelated publications.
Compare with care: the assays were run in different laboratories. Values joined by “and” are separate records of one study, mostly repeats; a detail may differ. Numbers after ± are the reported error.
Sequence of UniProt P08183 (whole entry, looked up): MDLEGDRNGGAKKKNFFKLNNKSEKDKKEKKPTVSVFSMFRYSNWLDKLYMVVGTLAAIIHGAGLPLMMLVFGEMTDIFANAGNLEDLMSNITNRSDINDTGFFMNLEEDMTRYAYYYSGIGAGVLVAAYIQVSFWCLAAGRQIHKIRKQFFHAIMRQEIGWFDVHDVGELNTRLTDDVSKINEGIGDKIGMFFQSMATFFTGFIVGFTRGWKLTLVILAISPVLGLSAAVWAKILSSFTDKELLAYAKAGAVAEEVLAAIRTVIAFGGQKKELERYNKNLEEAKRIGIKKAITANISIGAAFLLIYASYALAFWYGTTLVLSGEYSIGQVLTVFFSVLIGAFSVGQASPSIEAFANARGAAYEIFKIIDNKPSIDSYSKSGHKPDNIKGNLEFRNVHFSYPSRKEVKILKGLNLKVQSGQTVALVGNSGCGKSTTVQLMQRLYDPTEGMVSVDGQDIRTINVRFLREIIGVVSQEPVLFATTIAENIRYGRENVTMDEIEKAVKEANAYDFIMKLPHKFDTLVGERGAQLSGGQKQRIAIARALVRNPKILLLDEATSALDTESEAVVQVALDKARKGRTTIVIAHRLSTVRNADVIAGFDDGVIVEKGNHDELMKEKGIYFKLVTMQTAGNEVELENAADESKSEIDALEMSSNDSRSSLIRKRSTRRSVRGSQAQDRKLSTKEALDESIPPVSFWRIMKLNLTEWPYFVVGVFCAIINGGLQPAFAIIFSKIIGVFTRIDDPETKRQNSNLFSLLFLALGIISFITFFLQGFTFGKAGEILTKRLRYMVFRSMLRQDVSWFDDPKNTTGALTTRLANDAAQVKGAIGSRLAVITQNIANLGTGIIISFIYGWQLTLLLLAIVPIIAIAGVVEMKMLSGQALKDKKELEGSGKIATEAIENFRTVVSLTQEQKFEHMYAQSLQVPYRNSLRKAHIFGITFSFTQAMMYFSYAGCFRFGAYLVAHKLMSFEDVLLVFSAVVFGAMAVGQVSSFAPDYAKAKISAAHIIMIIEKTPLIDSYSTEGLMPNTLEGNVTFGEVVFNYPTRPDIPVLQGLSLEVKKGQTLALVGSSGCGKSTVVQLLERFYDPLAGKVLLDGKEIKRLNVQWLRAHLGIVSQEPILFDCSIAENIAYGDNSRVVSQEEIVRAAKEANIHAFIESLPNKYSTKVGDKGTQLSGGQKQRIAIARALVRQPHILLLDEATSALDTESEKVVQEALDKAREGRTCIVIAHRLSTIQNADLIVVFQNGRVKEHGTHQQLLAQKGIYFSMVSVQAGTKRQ

COc1cc2ncnc(Nc3cccc(Cl)c3)c2cc1OC  viability (HaCaT; 0.137 µM, 60 h): 99% and 103% and 98%
Cc1cc2c(c(O)c1O)C(=O)c1c(O)cc(O)cc1C2=O  cell viability (HepaRG co-cultured with HK-2; MTT; 33.33 µM, 48 h; baseline: untreated control): 88.3 ± 15.3%
CC(=O)N1CCC(C(=O)N2CCN3C(=O)c4cc(-c5ccccc5)ccc4NC(=O)C3C2)CC1 (stereo not drawn)  revertants per plate (Salmonella typhimurium; TA1537; 5000 µg/plate): 19.5
COc1cc2c(Oc3ccc4[nH]c(C)cc4c3F)ccnc2cc1OCC1(N)CC1  grade 3 Vomiting (paediatric recurrent refractory sarcoma; 8 mg/kg): 0%
C[C@]1(CO)Cc2ncn(-c3ccc(C#N)c(Cl)c3)c2C(=O)O1  Cmax at steady state (human, plasma; 3 mg once daily, fasted): 141 nM
O=c1ccc2ccccc2o1  chance response (NHEK; cell count; concentration not given, 24 h, GSH, ROS, ATP, MMP panel): 0.01%
O=C1c2ccccc2C(=O)c2ccccc21  cell viability (HepaRG co-cultured with HK-2; MTT; 66.67 µM, 24 h; baseline: untreated control): 76.5 ± 2.22%
CCc1ccc(CC/C=C/c2ccc3c(c2)C(=O)CC3)cc1  AST serum activity (Sprague-Dawley rat, female; oral, 450 mg/kg/day, 14 days): 115 U/L
COc1ccc2c(c1OC)C(=O)c1c(cc(C)c(O)c1OC)C2=O  cell viability (HK-2 co-cultured with HepaRG; MTT; 133.33 µM, 24 h; baseline: untreated control): 86.1 ± 18.2%
CO[C@H]1C[C@@H]2CC[C@@H](C)[C@@](O)(O2)C(=O)C(=O)N2CCCC[C@H]2C(=O)O[C@H]([C@H](C)C[C@@H]2CC[C@@H](OC(=O)NCCOCCOCCOCCOCCOCCOCCOCCOCCC(=O)N3CCc4cc(Cn5nc(-c6ccc7oc(N)nc7c6)c6c(N)ncnc65)ccc4C3)[C@H](OC)C2)C[C@@H](O)[C@H](C)/C=C(\C)[C@@H](O)[C@@H](OC)C(=O)[C@H](C)C[C@H](C)/C=C/C=C/C=C/1C  AE leading to discontinuation (patients with advanced solid tumours; intravenous, 16 mg weekly, any grade): 25%
CC(=O)OC[C@H]1O[C@@H](Oc2cc(O)cc3cc4oc(C)cc(=O)c4c(O)c23)[C@H](O)[C@@H](O)[C@@H]1O  cell viability (HepaRG co-cultured with HK-2; MTT; 16.67 µM, 48 h; baseline: untreated control): 123 ± 13.9%
CC(C)CC(=O)OC[C@H]1O[C@@](C#N)(c2ccc3c(N)ncnn23)[C@H](O)[C@@H]1O  Papp A to B (ATP-dependent translocase ABCB1 (ABCB1, Homo sapiens, UniProt P08183); Caco-2; 9 µM, with: zosuquidar 25 µM): 0.366 ×10⁻⁶ cm/s

For quick reference, copied from above:
CC(=O)N1CCC(C(=O)N2CCN3C(=O)c4cc(-c5ccccc5)ccc4NC(=O)C3C2)CC1 (stereo not drawn)  revertants per plate (Salmonella typhimurium; TA1537; 5000 µg/plate): 19.5
